Experimental data of several laboratories.
Every numbered part comes from another study and shows a few of its results, in no order. Positions count from the first letter of the parent shown.

Set 1 — technique: DHFR PCA, deep sequencing; matrix: yeast; with: (+)-ABA 4.8 µM; baseline: wild-type fitted maximum; reading: higher = stronger binding; endpoint: relative binding score
Target: ABI1, truncated, D143A, DHFR fusion (Arabidopsis thaliana)
Notes: methotrexate growth selection, single substitutions
Starting sequence: PYL1, truncated, DHFR fusion (Arabidopsis thaliana); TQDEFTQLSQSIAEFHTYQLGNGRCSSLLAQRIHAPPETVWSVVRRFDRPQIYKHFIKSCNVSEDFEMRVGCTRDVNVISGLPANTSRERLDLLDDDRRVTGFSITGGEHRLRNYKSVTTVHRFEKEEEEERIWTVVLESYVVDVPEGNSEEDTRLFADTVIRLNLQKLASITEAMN
N114I: -2.66%
E64T: 67.2%
K54P: 1.51%
E89W: -5.09%
E174S: 35.1%
I172F: 37.2%
P83I: 13.1%
K116V: 3.81%
N77C: 77.9%
R24N: 45.5%
N149E: 12.2%
T154Y: -13.2%
R49A: 71.5%
N114Q: -1.88%
S63K: 68.3%
N61R: 78.3%
E131L: 71.5%
L91H: -18%
F66I: 37.6%
T120M: 0.163%
T119Q: 46.4%
R74V: -6.54%

Set 2 — target: CCND1, cyclin fold, Cln2 fusion (human); technique: yeast growth competition, sequencing; matrix: yeast; notes: weak parent motif; baseline: not given; reading: higher = stronger binding; endpoint: normalised enrichment score
Starting sequence: WEE1 docking peptide (human); HKTFRKLRLFDTP; partner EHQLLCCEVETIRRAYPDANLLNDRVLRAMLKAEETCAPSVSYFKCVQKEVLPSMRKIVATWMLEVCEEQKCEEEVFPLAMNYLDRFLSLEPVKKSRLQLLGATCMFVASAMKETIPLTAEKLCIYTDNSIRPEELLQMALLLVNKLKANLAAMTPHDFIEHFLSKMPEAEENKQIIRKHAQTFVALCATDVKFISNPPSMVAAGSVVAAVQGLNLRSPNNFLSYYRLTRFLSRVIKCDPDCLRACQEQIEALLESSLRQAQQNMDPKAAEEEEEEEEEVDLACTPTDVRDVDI
HKTFNKLRLFDTP [R5N]: -4.96
HKTQRKLRLFDTP [F4Q]: 0.106
HKTFRKLRLFITP [D11I]: -0.295
HKTFRKERLFDTP [L7E]: -0.0827
HKTFRKLRLFDTA [P13A]: 0.0254
HKTFRKLRLFVTP [D11V]: 0.0246
HKTFRKLYLFDTP [R8Y]: 0.818
HKTFAKLRLFDTP [R5A]: -0.993
HKTFRKLRLFDQP [T12Q]: -0.122
HKTFRKLRLFDWP [T12W]: 0.533
HKKFRKLRLFDTP [T3K]: -0.675
HKTFRKKRLFDTP [L7K]: -0.711
HKTFRKLLLFDTP [R8L]: 0.0431
HKTLRKLRLFDTP [F4L]: 0.195
HKTFRKVRLFDTP [L7V]: -0.433
HKTFRKLRLFDEP [T12E]: 0.299
HKTFRKLRLFDTH [P13H]: -0.698
MKTFRKLRLFDTP [H1M]: 0.0962

Set 3 — target: JDP2, bZIP domain (human); technique: DHFR protein complementation; matrix: yeast; baseline: wild-type JUN-FOS pair; reading: higher = stronger binding; endpoint: binding fitness
Notes: single substitutions, most at no-binding floor
Starting sequence: JUN, bZIP domain (human); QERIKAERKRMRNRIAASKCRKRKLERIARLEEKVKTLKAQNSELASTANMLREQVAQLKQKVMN; partner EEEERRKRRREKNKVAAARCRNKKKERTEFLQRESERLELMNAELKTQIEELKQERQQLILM
L45H: 0.101 natural log
S43G: 0.333 natural log
R30S: 0.329 natural log
A29S: 0.243 natural log
T48P: -1.11 natural log
L31W: 0.307 natural log
K34P: -0.66 natural log
L52S: -0.743 natural log
I28L: 0.309 natural log
K36F: 0.2 natural log
L31M: 0.291 natural log
K34Y: 0.286 natural log
A40K: 0.313 natural log
A46Y: 0.238 natural log
I28H: 0.277 natural log
E33Q: 0.0926 natural log
T48Q: 0.289 natural log
K34C: 0.266 natural log
T37F: 0.3 natural log
A29G: 0.254 natural log
A40C: 0.274 natural log
L45Q: -0.0095 natural log
K36T: 0.259 natural log
Q41I: 0.315 natural log
T37G: 0.328 natural log

Set 4 — technique: protein binding microarray; form: double-stranded DNA, one strand shown; matrix: in vitro; tested at: not given; baseline: not given; reading: higher = stronger binding; endpoint: E-score
Target: Histone acetyltransferase KAT6A, winged helix 1, GST fusion (KAT6A, Homo sapiens, UniProt Q92794, residues 1-85)
Notes: 8-mer, flanks averaged, mean of 2 arrays, mostly near background
Residues (chain): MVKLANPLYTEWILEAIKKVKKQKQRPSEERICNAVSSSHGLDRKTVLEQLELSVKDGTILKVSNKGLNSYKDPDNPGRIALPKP
ATGACCAC: 0.0214
GGTGGTCA: 0.0775
ACTTTCCG: 0.0408
AGAGTGTC: -0.0977
ATTAAGCG: 0.14
TCGACCGA: 0.171
CCTGAACA: -0.124
GGAGTGCA: -0.078
CGCTAGCC: 0.281
TCGTTGCA: -0.21
ATCGCATA: 0.0407
ACCTGTCT: -0.154
CCATCGGA: 0.0588
CGGTACTC: 0.173
CGTCTCGA: -0.116
CCTAGAGA: -0.163
AGGACCAT: -0.14
CACGTGCA: -0.148

A few entries again (set 1):
E89W: -5.09%
R74V: -6.54%
N114I: -2.66%
T119Q: 46.4%
N77C: 77.9%
